Experimental data from different studies.
Every numbered part comes from another study and shows a few of its results, in no order. Values joined by “and” are separate records of one study, mostly repeats; a detail may differ.
Chain of UniProt Q9ZSY8 (whole entry, looked up): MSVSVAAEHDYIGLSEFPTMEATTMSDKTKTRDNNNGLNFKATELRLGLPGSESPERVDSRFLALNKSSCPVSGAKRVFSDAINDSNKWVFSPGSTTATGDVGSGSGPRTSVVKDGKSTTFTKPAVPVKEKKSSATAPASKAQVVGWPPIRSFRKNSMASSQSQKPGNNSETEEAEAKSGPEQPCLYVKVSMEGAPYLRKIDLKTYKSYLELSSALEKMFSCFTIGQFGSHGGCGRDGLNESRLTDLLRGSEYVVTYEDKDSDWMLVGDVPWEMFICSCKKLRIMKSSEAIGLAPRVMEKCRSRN

Sample 1 — technique: protein-binding microarray; form: double-stranded DNA, one strand shown; matrix: in vitro; tested at: not given; reading: higher = stronger binding
Target: Protein C-ets-1 (ETS1, Homo sapiens, UniProt P14921, residues 1-441, K379A, full length assumed)
Setting: k-mer, scored over probes, only values ≥0.25
Construct (chain): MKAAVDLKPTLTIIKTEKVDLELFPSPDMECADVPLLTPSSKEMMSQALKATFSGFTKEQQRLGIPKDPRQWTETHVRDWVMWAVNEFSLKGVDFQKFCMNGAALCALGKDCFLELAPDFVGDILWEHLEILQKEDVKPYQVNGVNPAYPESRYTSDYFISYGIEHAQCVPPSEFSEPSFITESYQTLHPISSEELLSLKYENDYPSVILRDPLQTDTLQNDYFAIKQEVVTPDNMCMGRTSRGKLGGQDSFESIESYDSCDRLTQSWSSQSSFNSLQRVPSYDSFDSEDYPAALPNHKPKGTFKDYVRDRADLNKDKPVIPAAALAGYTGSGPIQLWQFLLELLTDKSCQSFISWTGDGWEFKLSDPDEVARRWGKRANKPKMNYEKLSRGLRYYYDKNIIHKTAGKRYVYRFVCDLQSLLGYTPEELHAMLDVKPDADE
With `AGCCGGAT` the E-score was 0.262.
The E-score of `ATTTACCC` is reported as 0.254.
`ACTGTCGG` has an E-score of 0.273.
The E-score of `ACGCCACA` is reported as 0.279.
`CCGGCGAA` gave an E-score of 0.307.
With `ACACAACA` the E-score was 0.277.
The E-score of `ACACCGGT` is reported as 0.435.
For `GCGATCGC`, the E-score was 0.258.

Sample 2 — technique: universal PBM; form: double-stranded DNA, one strand shown; matrix: in vitro; tested at: 600 nM; reading: higher = stronger binding
Target: Sal-like protein 4, full length isoform A (SALL4, Homo sapiens, UniProt Q9UJQ4, residues 1-1053)
Chain of UniProt Q9UJQ4 (whole entry, looked up): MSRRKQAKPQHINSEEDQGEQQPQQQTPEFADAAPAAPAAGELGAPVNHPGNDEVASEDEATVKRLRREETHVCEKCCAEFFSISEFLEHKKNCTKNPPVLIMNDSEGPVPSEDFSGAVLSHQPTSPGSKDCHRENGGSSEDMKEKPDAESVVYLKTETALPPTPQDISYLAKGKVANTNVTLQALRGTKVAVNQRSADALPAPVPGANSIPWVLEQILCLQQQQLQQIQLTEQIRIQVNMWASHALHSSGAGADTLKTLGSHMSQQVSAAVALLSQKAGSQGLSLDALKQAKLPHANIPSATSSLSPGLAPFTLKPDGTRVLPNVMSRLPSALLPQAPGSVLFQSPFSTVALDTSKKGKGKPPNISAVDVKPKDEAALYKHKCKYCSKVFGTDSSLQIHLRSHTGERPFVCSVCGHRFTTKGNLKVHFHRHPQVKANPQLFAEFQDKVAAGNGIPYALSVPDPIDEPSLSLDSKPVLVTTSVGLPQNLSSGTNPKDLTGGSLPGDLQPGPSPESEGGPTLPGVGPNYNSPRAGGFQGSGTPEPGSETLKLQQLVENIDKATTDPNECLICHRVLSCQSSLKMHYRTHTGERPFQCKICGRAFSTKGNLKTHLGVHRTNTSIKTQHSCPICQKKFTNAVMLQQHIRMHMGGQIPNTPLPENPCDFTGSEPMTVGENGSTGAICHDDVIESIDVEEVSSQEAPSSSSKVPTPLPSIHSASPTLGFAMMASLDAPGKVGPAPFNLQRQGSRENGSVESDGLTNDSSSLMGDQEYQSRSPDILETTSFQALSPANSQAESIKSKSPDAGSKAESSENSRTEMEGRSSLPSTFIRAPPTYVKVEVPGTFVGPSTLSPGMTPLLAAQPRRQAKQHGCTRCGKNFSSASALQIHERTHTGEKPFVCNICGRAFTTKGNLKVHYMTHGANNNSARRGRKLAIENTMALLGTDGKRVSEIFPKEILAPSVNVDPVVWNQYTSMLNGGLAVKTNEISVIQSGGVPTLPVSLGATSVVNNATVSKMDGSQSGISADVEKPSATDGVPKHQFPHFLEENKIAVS
Setting: 8-mer, flanks averaged, mean of replicates
`ATCCGCAA` gave an E-score of -0.0118.
With `ATGCGTTG` the E-score was 0.0759.
`CTAGCCCA` gave an E-score of -0.132.
`CGAAGAAC` gave an E-score of 0.0466.
With `CACACTGC` the E-score was -0.211.
`ATCTTATA` has an E-score of 0.283.
For `CTCCACAC`, the E-score was -0.107.
`ATATCGCG` gave an E-score of 0.135.

Mixed results
ARF22: ARF22 498-598 (Arabidopsis thaliana, UniProt Q9C8N7)
B1: ARF8 699-811 (Arabidopsis thaliana, UniProt Q9FGV1); chain NSSNQTKNFVKVYKSGSVGRSLDISRFSSYHELREELGKMFAIEGLLEDPLRSGWQLVFVDKENDILLLGDDPWESFVNNVWYIKILSPEDVHQMGDHGEGSGGLFPQNPTHL
B2: ARF19 948-1086 (Arabidopsis thaliana, UniProt Q8RYC8); chain GLWPNQTQRMRTYTKVQKRGSVGRSIDVTRYSGYDELRHDLARMFGIEGQLEDPLTSDWKLVYTDHENDILLVGDDPWEEFVNCVQNIKILSSVEVQQMSLDGDLAAIPTTNQACSETDSGNAWKVHYEDTSAAASFNR
B3: ARF12 500-593 (Arabidopsis thaliana, UniProt Q9XID4); chain TEIQNKQFSSSRTCTKVQMQGVTIGRAVDLSVLNGYDQLILELEKLFDIKGQLQTRNQWEIAFTDSDEDKMLVGDDPWPEFCNMVKKIFIQKRR
For `B1 (ARF8 699-811)`, the positive tests was 0 (ARF22; two-hybrid; relative to: out of 4 tests, higher = firmer interaction).
`CCOc1nc2cccc(C(=O)O)c2n1Cc1ccc(-c2ccccc2-c2nnn[nH]2)cc1`: “nuclear SOX9 intensity” 99 % of DMSO and 92.9 % of DMSO (mouse MPNST tumor cells; high-content immunofluorescence imaging, refers to: nuclear SOX9; 10 µM, 12 h, mean of 2 replicates; relative to: DMSO control, higher = more nuclear SOX9).
`B2 (ARF19 948-1086)` gave a positive tests of 0 (ARF22; two-hybrid; relative to: out of 4 tests, higher = firmer interaction).
For `B3 (ARF12 500-593)`, the positive tests was 2 (ARF22; two-hybrid; relative to: out of 4 tests, higher = firmer interaction).
`IAA27 (Arabidopsis thaliana, UniProt Q9ZSY8)` has a positive tests of 2 (ARF22; two-hybrid; relative to: out of 4 tests, higher = firmer interaction).

Some of these lines once more (mixed results):
`B2 (ARF19 948-1086)` gave a positive tests of 0 (ARF22; two-hybrid; relative to: out of 4 tests, higher = firmer interaction).
For `B3 (ARF12 500-593)`, the positive tests was 2 (ARF22; two-hybrid; relative to: out of 4 tests, higher = firmer interaction).
`IAA27 (Arabidopsis thaliana, UniProt Q9ZSY8)` has a positive tests of 2 (ARF22; two-hybrid; relative to: out of 4 tests, higher = firmer interaction).
